Measured values gathered from unrelated publications.
B1: yihE 1-328 (Escherichia coli, UniProt P0C0K3); chain MNNSAFTFQTLHPDTIMDALFEHGIRVDSGLTPLNSYENRVYQFQDEDRRRFVVKFYRPERWTADQILEEHQFALQLVNDEVPVAAPVAFNGQTLLNHQGFYFAVFPSVGGRQFEADNIDQMEAVGRYLGRMHQTGRKQLFIHRPTIGLNEYLIEPRKLFEDATLIPSGLKAAFLKATDELIAAVTAHWREDFTVLRLHGDCHAGNILWRDGPMFVDLDDARNGPAVQDLWMLLNGDKAEQRMQLETIIEAYEEFSEFDTAEIGLIEPLRAMRLVYYLAWLMRRWADPAFPKNFPWLTGEDYWLRQTATFIEQAKVLQEPPLQLTPMY
B2: PduA 2-94 (Salmonella enterica, UniProt P0A1C7); chain QQEALGMVETKGLTAAIEAADAMVKSANVMLVGYEKIGSGLVTVIVRGDVGAVKAATDAGAAAARNVGEVKAVHVIPRPHTDVEKILPKGISQ
B3: CLEC1A 74-280 (Homo sapiens, UniProt Q8NC01); sequence looked up; chain QYYQLSNTGQDTISQMEERLGNTSQELQSLQVQNIKLAGSLQHVAEKLCRELYNKAGAHRCSPCTEQWKWHGDNCYQFYKDSKSWEDCKYFCLSENSTMLKINKQEDLEFAASQSYSEFFYSYWTGLLRPDSGKAWLWMDGTPFTSELFHIIIDVTSPRSRDCVAILNGMIFSKDCKELKRCVCERRAGMVKPESLHVPPETLGEGD
B4: SNAPC2 (Homo sapiens, UniProt Q13487); chain MKPPPRRRAAPARYLGEVTGPATWSAREKRQLVRLLQARQGQPEPDATELARELRGRSEAEIRVFLQQLKGRVAREAIQKVHPGGLQGPRRREAQPPAPIEVWTDLAEKITGPLEEALAVAFSQVLTIAATEPVTLLHSKPPKPTQARGKPLLLSAPGGQEDPAPEIPSSAPAAPSSAPRTPDPAPEKPSESSAGPSTEEDFAVDFEKIYKYLSSVSRSGRSPELSAAESAVVLDLLMSLPEELPLLPCTALVEHMTETYLRLTAPQPIPAGGSLGPAAEGDGAGSKAPEETPPATEKAEHSELKSPWQAAGICPLNPFLVPLELLGRAATPAR
B5: KMT2B 1-300 (Homo sapiens, UniProt Q9UMN6); chain MAAAAGGGSCPGPGSARGRFPGRPRGAGGGGGRGGRGNGAERVRVALRRGGGATGPGGAEPGEDTALLRLLGLRRGLRRLRRLWAGPRVQRGRGRGRGRGWGPSRGCVPEEESSDGESDEEEFQGFHSDEDVAPSSLRSALRSQRGRAPRGRGRKHKTTPLPPPRLADVAPTPPKTPARKRGEEGTERMVQALTELLRRAQAPQAPRSRACEPSTPRRSRGRPPGRPAGPCRRKQQAVVVAEAAVTIPKPEPPPPVVPVKHQTGSWKCKEGPGPGPGTPRRGGQSSRGGRGGRGRGRGGG
B6: cas1 1-324 (Pseudomonas aeruginosa, UniProt Q02ML7); chain MDDISPSELKTILHSKRANLYYLQHCRVLVNGGRVEYVTDEGRHSHYWNIPIANTTSLLLGTGTSITQAAMRELARAGVLVGFCGGGGTPLFSANEVDVEVSWLTPQSEYRPTEYLQRWVGFWFDEEKRLVAARHFQRARLERIRHSWLEDRVLRDAGFAVDATALAVAVEDSARALEQAPNHEHLLTEEARLSKRLFKLAAQATRYGEFVRAKRGSGGDPANRFLDHGNYLAYGLAATATWVLGIPHGLAVLHGKTRRGGLVFDVADLIKDSLILPQAFLSAMRGDEEQDFRQACLDNLSRAQALDFMIDTLKDVAQRSTVSA
B7: SSPN (Oryctolagus cuniculus, UniProt P82352); sequence looked up; chain MGKDRQPRGQQRQGDAAGPDDPGPKKGAGTREQRGEEEAQTCCGCRFPLLLALLQLALGVAVTVVGFLMASVSSSLLVRATPYWAGIIVCVVAYLGLFMLCVSYQVDERTCIQFSMKLLYFVLSALGLVVCVLAVAFAAHHYSLLTHLTCENAPDSCQCKLPSSEPLSRTFVYRDVTDCTSITGTFQVFLLVQMVLNLVCGLVCLVACFVMWKHRYQVFYVGVRMCPLSASEGQQQKV
B8: HY5 S36A (Arabidopsis thaliana, UniProt O24646); sequence looked up; chain MQEQATSSLAASSLPSSSERSSSSAPHLEIKEGIEADEEIRRVPEFGGEAVGKETSGRESGSATGQERTQATVGESQRKRGRTPAEKENKRLKRLLRNRVSAQQARERKKAYLSELENRVKDLENKNSELEERLSTLQNENQMLRHILKNTTGNKRGGGGGSNADASL
B9: gld-3 860-949 (Caenorhabditis elegans, UniProt Q95ZK7); sequence looked up; chain NGVTKTILEPRARVEKDYGKISLEHKTKYSNEYGDEEKSAENDTSSLGSRQYRIDPMKLIASVRESSEQLPRIHERQFSDVLNEKEKEIA
B10: UBASH3A 276-340 (Homo sapiens, UniProt P57075); chain VHYQTLRALFQYKPQNVDELTLSPGDYIFVDPTQQDEASEGWVIGISQRTGCRGFLPENYTDRAS
Chain of UniProt Q9XDN6 (whole entry, looked up): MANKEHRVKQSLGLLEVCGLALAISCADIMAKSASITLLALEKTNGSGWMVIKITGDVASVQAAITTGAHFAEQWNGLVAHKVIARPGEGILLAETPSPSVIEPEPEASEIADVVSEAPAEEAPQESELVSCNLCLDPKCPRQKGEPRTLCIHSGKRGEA
Chain of UniProt Q99873 (whole entry, looked up): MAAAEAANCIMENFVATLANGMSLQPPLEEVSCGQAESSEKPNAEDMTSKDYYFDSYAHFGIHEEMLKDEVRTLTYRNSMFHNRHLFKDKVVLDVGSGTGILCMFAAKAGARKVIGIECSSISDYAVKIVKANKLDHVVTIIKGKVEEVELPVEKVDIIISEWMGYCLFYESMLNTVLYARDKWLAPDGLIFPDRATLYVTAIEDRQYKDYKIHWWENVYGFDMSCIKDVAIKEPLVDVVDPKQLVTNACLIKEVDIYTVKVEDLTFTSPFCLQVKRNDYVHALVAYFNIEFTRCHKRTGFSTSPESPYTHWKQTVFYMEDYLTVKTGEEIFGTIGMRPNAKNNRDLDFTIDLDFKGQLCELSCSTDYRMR
Chain of UniProt Q09312 (whole entry, looked up): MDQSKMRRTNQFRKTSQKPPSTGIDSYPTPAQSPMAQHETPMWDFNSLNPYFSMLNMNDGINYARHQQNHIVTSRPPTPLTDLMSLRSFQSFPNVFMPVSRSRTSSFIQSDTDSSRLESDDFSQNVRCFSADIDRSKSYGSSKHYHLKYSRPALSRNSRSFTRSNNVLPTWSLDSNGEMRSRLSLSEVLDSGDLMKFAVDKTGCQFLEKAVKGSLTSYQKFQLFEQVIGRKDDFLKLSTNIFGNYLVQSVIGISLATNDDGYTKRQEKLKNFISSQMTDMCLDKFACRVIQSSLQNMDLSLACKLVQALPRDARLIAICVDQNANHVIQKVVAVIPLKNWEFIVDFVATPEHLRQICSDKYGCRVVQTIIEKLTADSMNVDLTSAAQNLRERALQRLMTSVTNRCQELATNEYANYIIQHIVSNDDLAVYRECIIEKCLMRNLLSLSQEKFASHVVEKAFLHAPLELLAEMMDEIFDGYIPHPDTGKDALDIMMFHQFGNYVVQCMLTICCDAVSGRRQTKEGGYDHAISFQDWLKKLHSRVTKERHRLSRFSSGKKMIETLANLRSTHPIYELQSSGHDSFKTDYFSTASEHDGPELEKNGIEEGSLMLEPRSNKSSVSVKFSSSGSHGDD
Chain of UniProt Q5SXM2 (whole entry, looked up): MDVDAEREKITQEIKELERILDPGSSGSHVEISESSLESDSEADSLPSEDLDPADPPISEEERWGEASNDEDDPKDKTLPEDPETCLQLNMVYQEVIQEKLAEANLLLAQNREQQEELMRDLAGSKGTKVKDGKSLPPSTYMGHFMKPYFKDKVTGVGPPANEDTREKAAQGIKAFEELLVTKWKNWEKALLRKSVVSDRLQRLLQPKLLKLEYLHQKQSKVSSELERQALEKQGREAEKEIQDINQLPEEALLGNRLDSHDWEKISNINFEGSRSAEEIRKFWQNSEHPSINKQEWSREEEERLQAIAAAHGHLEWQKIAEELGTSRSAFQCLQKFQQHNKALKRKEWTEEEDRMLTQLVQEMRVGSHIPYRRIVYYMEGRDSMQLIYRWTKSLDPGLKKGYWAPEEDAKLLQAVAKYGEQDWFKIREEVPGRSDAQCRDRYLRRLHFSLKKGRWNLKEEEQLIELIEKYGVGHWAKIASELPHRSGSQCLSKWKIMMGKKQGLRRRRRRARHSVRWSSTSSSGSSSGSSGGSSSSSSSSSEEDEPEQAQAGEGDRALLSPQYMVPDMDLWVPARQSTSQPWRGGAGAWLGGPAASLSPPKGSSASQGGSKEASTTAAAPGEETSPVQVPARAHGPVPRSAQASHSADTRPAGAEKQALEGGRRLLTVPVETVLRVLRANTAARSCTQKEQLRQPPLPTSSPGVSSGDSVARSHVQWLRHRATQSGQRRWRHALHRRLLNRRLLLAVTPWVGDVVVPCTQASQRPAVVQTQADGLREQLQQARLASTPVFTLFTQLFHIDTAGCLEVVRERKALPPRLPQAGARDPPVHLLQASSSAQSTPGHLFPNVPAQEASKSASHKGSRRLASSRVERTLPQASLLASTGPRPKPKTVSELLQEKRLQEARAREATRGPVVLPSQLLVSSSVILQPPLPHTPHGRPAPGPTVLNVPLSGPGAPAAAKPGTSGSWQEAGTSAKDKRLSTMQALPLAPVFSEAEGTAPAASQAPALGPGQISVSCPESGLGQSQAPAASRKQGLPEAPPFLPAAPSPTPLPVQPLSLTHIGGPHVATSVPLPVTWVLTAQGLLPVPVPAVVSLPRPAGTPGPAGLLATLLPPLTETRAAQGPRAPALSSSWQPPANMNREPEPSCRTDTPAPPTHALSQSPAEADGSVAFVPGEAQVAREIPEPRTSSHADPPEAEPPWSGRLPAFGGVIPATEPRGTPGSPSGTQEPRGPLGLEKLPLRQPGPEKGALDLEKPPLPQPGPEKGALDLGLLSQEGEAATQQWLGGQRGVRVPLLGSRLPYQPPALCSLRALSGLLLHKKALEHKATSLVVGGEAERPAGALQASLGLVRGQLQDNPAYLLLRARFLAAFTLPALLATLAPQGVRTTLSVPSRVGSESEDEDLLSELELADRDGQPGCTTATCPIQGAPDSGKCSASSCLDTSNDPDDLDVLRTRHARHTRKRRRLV
Chain of UniProt P0AG30 (whole entry, looked up): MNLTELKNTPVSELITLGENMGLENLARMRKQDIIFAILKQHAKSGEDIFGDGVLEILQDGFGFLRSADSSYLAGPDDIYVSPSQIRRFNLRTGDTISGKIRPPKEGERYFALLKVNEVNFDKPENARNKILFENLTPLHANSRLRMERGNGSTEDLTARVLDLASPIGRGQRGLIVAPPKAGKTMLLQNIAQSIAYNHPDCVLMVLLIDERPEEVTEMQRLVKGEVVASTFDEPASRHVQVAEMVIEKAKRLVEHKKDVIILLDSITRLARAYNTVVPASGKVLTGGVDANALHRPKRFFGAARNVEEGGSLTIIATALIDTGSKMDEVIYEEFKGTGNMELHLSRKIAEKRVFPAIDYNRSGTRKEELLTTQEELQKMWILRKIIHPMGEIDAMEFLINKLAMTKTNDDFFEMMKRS
Chain of UniProt P27986 (whole entry, looked up): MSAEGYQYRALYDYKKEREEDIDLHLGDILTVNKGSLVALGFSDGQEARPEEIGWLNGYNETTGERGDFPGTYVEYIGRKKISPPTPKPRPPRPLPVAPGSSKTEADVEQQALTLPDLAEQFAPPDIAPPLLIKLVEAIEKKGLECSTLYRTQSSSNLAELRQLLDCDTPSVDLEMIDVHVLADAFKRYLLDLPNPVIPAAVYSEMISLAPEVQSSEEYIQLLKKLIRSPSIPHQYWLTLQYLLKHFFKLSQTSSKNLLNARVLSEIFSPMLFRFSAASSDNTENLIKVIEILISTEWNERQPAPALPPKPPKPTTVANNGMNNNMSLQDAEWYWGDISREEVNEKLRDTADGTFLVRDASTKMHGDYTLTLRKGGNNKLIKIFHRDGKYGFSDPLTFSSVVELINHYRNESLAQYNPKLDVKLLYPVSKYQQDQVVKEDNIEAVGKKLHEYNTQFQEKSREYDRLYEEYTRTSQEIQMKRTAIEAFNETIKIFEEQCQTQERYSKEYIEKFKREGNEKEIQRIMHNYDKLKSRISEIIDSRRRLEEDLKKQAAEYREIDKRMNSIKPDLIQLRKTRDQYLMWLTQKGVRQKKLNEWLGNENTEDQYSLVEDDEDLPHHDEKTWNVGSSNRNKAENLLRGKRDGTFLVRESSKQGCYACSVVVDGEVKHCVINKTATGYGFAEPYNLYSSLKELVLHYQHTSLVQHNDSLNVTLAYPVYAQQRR
Chain of UniProt Q28635 (whole entry, looked up): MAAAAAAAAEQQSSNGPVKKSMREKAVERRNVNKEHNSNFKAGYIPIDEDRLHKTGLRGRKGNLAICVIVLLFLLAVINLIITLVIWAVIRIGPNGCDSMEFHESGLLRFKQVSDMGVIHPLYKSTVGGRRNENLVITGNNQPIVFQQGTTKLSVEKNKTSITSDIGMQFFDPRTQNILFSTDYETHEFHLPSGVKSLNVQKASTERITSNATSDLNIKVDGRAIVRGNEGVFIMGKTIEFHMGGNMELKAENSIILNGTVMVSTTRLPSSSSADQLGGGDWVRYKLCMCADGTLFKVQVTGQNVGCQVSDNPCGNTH
Chain of UniProt Q8L6Y1 (whole entry, looked up): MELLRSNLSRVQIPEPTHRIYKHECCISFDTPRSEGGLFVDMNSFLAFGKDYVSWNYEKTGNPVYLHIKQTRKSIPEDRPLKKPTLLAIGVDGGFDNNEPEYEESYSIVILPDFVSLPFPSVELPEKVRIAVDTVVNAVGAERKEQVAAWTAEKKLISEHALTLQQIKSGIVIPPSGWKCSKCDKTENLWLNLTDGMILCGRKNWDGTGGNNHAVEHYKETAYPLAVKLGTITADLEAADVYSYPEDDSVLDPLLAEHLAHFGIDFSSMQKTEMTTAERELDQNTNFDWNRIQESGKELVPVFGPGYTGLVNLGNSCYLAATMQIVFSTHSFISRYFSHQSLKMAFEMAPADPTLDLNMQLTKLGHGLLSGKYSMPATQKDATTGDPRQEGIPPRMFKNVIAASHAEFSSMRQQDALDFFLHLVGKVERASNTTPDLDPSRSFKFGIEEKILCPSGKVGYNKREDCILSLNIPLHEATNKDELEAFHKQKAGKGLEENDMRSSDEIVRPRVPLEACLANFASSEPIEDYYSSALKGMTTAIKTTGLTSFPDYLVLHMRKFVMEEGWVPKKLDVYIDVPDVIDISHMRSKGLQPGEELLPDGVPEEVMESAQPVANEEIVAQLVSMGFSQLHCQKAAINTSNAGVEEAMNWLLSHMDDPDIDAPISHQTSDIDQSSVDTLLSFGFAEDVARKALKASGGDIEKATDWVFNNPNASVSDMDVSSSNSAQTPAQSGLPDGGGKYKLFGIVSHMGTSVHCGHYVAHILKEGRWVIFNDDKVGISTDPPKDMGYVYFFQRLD

| Substance | target or system | assay | test system | setting | how to read | endpoint | result |
| --- | --- | --- | --- | --- | --- | --- | --- |
| B1 (yihE 1-328) | rho 1-419 (Escherichia coli, UniProt P0AG30) | pull-down | – | – | – | binding | binds |
| TVQLIMQLMPF | HLA class I histocompatibility antigen, A alpha chain, allele A*01:01 (Homo sapiens, UniProt P04439) | conformational ELISA | peptide | concentration not given | relative to: positive control peptide, direction not given | binding score | 1.9% |
| B2 (PduA 2-94) | PduK (Salmonella enterica, UniProt Q9XDN6) | cross-linking | – | – | – | binding | binds |
| B3 (CLEC1A 74-280) | SERPINC1 mature (Homo sapiens, UniProt P01008) | SPR | – | – | – | binding | binds |
| B4 (SNAPC2) | SNAPC4 (Homo sapiens, UniProt Q5SXM2) | cross-linking | – | – | – | binding | binds |
| SMARCA4 fragment (Homo sapiens) (sequence not shown) | ACTB (Homo sapiens, UniProt P60709) | pull-down | – | not purified | – | binding | binds |
| B5 (KMT2B 1-300) | PRMT1 (Homo sapiens, UniProt Q99873) | pull-down | – | – | – | binding | binds |
| EGQAPQRRQDDEGLGSQRPQME (XRCC6 537-554 K537Q/K540Q/K551Q/K554Q (Canis lupus familiaris)) | KPNA2/KPNB1 (Homo sapiens) | pull-down | – | – | – | binding | binds |
| colistin | Acinetobacter baumannii | broth microdilution | clinical isolate RKI-No_11/16 | – | – | MIC | 1 µg/mL |
| LMPFGSLLDYV | HLA class I histocompatibility antigen, A alpha chain, allele A*02:01 (Homo sapiens, UniProt P04439) | conformational ELISA | peptide | concentration not given | relative to: positive control peptide, direction not given | binding score | 63.2% |
| B6 (cas1 1-324) | cas3 1-1076 (Pseudomonas aeruginosa, UniProt Q02ML8) | cryo-EM | – | – | – | binding | binds |
| B7 (SSPN) | SGCB (Oryctolagus cuniculus, UniProt Q28635) | cryo-EM structure | – | – | – | binding | binds |
| B8 (HY5 S36A) | UBP14 (Arabidopsis thaliana, UniProt Q8L6Y1) | pull-down | – | – | – | binding | binds |
| PKRSFIESNV | human MAGI1-2/6 PDZ construct (MBP fusion) | automated holdup | peptide, purified PDZ protein | concentration not given, unit not given | relative to: biotin control resin, higher = stronger binding | binding intensity | 0.284 |
| B9 (gld-3 860-949) | fbf-2 164-575 (Caenorhabditis elegans, UniProt Q09312) | native gel EMSA | – | – | – | binding | binds |
| QDEKVKESYV | human MAGI1-2/6 PDZ construct (MBP fusion) | automated holdup | peptide, purified PDZ protein | concentration not given, unit not given | relative to: biotin control resin, higher = stronger binding | binding intensity | -0.0633 |
| B10 (UBASH3A 276-340) | PIK3R1 80-724 (Homo sapiens, UniProt P27986) | ITC | – | – | – | binding | binds |

Some of these lines once more:
| Substance | target or system | assay | test system | setting | how to read | endpoint | result |
| --- | --- | --- | --- | --- | --- | --- | --- |
| QDEKVKESYV | human MAGI1-2/6 PDZ construct (MBP fusion) | automated holdup | peptide, purified PDZ protein | concentration not given, unit not given | relative to: biotin control resin, higher = stronger binding | binding intensity | -0.0633 |
